Assay results pooled from the literature.
Each numbered part is a random draw from the data of one study; scales do not carry over between parts.

Block 1 — method: RNA Bind-n-Seq; form: RNA; matrix: in vitro; tested at: 365 nM; reference: no-protein control; direction: higher = stronger binding
Target: RNA binding protein fox-1 homolog 2, RRM domain, GST-SBP tag (RBFOX2, Homo sapiens, UniProt O43251-10, residues 100-194)
Setting: natural RNA segment, single round, ends assumed
Constant ends, left off below: GGGAGUUCUACAGUCCGACGAUC … UGGAAUUCUCGGGUGCCAA
For `UAGUCCUAUUCAGAUACAUCAAAUAUCAGUGAAUGCUUUACUAUUCGCACAUUUAAGCAUCUUUGUUUUACAUAAAAUUAGAGUAUGAAAACCAGUGUUCAAUUUUUUAU`, “RBNS enrichment (R)” read 1.22.
Under “RBNS enrichment (R)”, `CAAGAGGAUUCUGGGCGUGGCAAGCUCUACAGGUCAAGCUGUUUCCUCUAUCCUGGUAACUCCUCACUGUACUGAUUUACUGGUGCAUGCAAUUCUGUUAAAAAAUGUAU` is recorded as 6.52.
`UCACUGCGCUCAAGGAAAAAGUCAGAUGGGUGACAAGGUGGUUCUGUUUAGAAGCAGCAGGCAAUGUAGUUAACAGCAUAGACUUCCGUGUCUUGUGUGUGGUACCUUGG` — result for “RBNS enrichment (R)”: 3.62.
For `GGAAGCCUACUGUGAUGGUUUGUAUAUGCUUGGGCCGGGGAGUGGCGCUAUUAGGAAGCGUGGCCUUUUUGGACUAGGUGUGUCACUGUGGCUGUGGGGUAUAGCACCCU`, “RBNS enrichment (R)” read 1.27.
Under “RBNS enrichment (R)”, `UCUCAUAGUAUAGAAAUGACAAGCACUGCUGGCUAUAGAGAAAAUGUUAUAAAAAUUGUCAUUGAAUUCUUUAAUGGUGUCCAACCACGAUGAUAUUGCUGAUCAAAAGU` is recorded as 1.53.

Block 2 — method: universal PBM; form: double-stranded DNA, one strand shown; matrix: in vitro; tested at: not given; direction: higher = stronger binding
Target: Sal-like protein 4, full length isoform B (SALL4, Homo sapiens, UniProt Q9UJQ4-2, residues 1-616)
Setting: 8-mer, flanks averaged, mean of replicates
Target sequence (chain): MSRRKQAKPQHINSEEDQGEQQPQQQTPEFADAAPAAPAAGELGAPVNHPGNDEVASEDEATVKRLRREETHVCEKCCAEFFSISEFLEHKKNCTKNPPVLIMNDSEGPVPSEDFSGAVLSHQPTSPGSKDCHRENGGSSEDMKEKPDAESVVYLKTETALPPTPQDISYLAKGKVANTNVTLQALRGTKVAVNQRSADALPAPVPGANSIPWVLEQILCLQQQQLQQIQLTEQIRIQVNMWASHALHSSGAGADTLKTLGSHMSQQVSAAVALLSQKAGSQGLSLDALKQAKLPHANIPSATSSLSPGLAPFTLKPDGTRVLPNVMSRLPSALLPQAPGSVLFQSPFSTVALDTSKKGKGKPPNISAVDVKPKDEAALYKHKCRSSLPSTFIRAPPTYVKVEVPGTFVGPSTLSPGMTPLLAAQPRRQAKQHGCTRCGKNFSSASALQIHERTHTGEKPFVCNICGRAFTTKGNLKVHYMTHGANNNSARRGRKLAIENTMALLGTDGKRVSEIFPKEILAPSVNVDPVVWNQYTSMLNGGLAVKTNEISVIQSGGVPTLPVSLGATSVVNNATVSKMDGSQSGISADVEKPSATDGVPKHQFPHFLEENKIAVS
For `AGTACAAT`, the E-score was 0.241.
`AGCACATA` has an E-score of 0.111.
For `ACAGCCCA`, the E-score was -0.132.
`TACAGAGA` gave an E-score of 0.00735.
For `GTCGGGGA`, the E-score was -0.269.
The E-score of `GCAAGCAC` is reported as -0.0797.
For `CAAGATTA`, the E-score was 0.117.
`CGTGCCCC` gave an E-score of -0.281.
With `AAGTCAGA` the E-score was -0.119.
`GCATCCAA` gave an E-score of -0.105.
With `CATGACGA` the E-score was -0.115.
The E-score of `GGCCGACA` is reported as -0.246.
The E-score of `ATCGAGAT` is reported as 0.0662.
`ATTGAGAG` has an E-score of 0.115.
`GCGGCCCA` has an E-score of -0.307.

Block 3 — method: RNAcompete; form: RNA; matrix: in vitro; tested at: 20 nM; setting: 7-mer, probes averaged, single round; reference: mean of 7-mers; direction: higher = stronger binding
Target: PABPC1L2, full length, GST fusion (mouse, UniProt A0ABA7IW68)
Target sequence (chain): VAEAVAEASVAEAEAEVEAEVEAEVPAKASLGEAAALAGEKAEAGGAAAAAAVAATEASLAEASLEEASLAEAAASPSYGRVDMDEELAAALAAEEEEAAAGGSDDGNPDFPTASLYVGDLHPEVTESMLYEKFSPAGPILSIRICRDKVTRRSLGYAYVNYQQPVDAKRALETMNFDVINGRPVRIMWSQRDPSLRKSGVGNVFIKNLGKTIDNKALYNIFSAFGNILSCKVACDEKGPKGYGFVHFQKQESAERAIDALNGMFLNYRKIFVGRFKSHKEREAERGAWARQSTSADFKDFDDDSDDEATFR
The 7-mer Z-score of `UGGCCCA` is reported as -0.24.
`CGAUGGC` gave a 7-mer Z-score of -0.012.
With `AACCCGG` the 7-mer Z-score was -0.0228.
`CGUCCUA` gave a 7-mer Z-score of -0.411.
The 7-mer Z-score of `UAGUAGG` is reported as -0.199.
For `CGGUUAG`, the 7-mer Z-score was -0.0174.
For `UGGGUAA`, the 7-mer Z-score was 0.234.
The 7-mer Z-score of `UUCUAAA` is reported as 0.401.

Block 4 — method: RNA Bind-n-Seq; form: RNA; matrix: in vitro; tested at: 1 µM; setting: whole 134-nt RNA, ends assumed; together with: 150 mM KCl; reference: input library; direction: higher = stronger binding
Target: Ras GTPase-activating protein-binding protein 1, RRM domain (G3BP1, Homo sapiens, UniProt Q13283)
UniProt Q13283, sequence (whole entry, looked up): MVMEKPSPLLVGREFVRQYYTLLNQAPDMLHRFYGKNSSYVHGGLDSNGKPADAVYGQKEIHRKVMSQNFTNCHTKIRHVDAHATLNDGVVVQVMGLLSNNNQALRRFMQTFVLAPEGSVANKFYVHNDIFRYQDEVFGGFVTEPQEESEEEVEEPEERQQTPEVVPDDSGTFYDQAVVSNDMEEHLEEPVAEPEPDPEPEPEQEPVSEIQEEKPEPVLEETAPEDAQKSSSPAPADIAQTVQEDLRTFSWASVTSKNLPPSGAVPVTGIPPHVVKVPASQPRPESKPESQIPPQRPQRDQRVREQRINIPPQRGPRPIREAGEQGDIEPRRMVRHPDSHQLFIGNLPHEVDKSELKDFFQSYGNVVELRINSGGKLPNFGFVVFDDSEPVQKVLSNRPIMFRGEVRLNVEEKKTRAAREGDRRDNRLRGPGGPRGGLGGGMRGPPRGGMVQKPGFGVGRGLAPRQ
Constant ends, left off below: GGGAGUUCUACAGUCCGACGAUC … UGGAAUUCUCGGGUGUCAAGG
`UGGAAGGAACGAGCCAGGAAGAGGGACUGGAACCAUCUCAGAAGCCAUGCCCCUCAGGCUGGAACUUGCCCUGUCUCCUCGCAGAUGAGG` gave a log2 enrichment of -0.592.
`CACAGACAACACGCACCCACACAGACACAGAGGGAAGGUGUUGGGAUGGGGACAGGGUGCACAGCAGGGCGGGGUAGGACCCCAGCCCCU` has a log2 enrichment of -0.116.
For `UGGCUAGUCAGCAGCGGAUGUCCCCUCCAGGUUAAGAAAGCCGAACCAGAGCCGAUGCGAGAGGAGGAGAAAAUGAUUCCUCCUACGAAA`, the log2 enrichment was -0.0636.
With `GUCCUGUGCUACACAUCGUAUGUACCGAAUCGGGGAAAGGGGAAAGGGGUUUUUGGGGAAAGUAUUAUGUUACGCCGUUCGGAUCUGCAC` the log2 enrichment was 1.45.
For `CACAGACAACACGCACCCACACAGAAAAAGAGGGAAGGGGUUGGGAUGGGGACAGGGUGCACAGCAGGGCGGGGUAGGACCCCAGCCCCU`, the log2 enrichment was -0.252.
`ACCAUGAAAGUGGGCAUCUUUGGGAAGUGGGGCAAGGGGGGGAUAGGGAGGGGGGUAACACUUUGGGAACAGGUGGUCCCAGGUCGUUUC` has a log2 enrichment of -0.223.

A few entries again (block 4):
`CACAGACAACACGCACCCACACAGACACAGAGGGAAGGUGUUGGGAUGGGGACAGGGUGCACAGCAGGGCGGGGUAGGACCCCAGCCCCU` has a log2 enrichment of -0.116.
For `UGGCUAGUCAGCAGCGGAUGUCCCCUCCAGGUUAAGAAAGCCGAACCAGAGCCGAUGCGAGAGGAGGAGAAAAUGAUUCCUCCUACGAAA`, the log2 enrichment was -0.0636.
